Measurements from different studies.
Numbered parts are unrelated; each lists some results of a single study. Positions count from the first letter of the parent shown.

Set 1
Target: TAR DNA-binding protein 43, full length, His tag (TARDBP, Homo sapiens, UniProt Q13148, residues 1-414)
Technique: RNA Bind-n-Seq
Form: RNA
Medium: in vitro
Concentration: 20 nM
Notes: 6-mer, flanks averaged, single round
Together with: 150 mM LiCl
Baseline: input library
Direction: higher = stronger binding
Endpoint: 6-mer enrichment (R)
GCGCUC: 0.894
CCACGG: 0.91
AGGAGC: 0.966
CUUCUG: 0.872
AGCAGU: 0.935
CAGGUA: 0.931
UACGAU: 0.827
CACUAU: 0.912
UUGCGA: 0.957
GGAAUC: 0.856
UGGUGC: 1.18

Set 2
Target: CCNE2, cyclin fold, Cln2 fusion (human)
Technique: yeast growth competition, sequencing
Medium: yeast
Notes: strong parent motif
Baseline: not given
Direction: higher = stronger binding
Endpoint: normalised enrichment score
Starting sequence: SCAPER docking peptide (human); SNARRSLNFGGST
SNARGSLNFGGST [R5G]: -0.842
SNARRSENFGGST [L7E]: -0.28
SNARRKLNFGGST [S6K]: 4.33
SNARRSLNYGGST [F9Y]: -0.0011
SNARRSINFGGST [L7I]: 1.11
SNARRSLNFGGET [S12E]: 1.45

Set 3
Target: PABPC1L2, full length, GST fusion (mouse, UniProt A0ABA7IW68)
Technique: RNAcompete
Form: RNA
Medium: in vitro
Concentration: 20 nM
Notes: 7-mer, probes averaged, single round
Baseline: mean of 7-mers
Direction: higher = stronger binding
Endpoint: 7-mer Z-score
Target sequence (chain): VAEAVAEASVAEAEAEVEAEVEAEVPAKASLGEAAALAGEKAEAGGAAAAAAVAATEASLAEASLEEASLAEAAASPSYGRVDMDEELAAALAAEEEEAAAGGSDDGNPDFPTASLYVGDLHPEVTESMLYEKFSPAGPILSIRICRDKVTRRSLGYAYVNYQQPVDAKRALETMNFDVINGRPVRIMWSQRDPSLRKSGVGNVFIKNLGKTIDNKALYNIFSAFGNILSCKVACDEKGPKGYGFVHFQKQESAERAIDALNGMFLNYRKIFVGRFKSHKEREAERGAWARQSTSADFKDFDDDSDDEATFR
CUUCGGA: -0.269
UAUGGAG: -0.0264
ACAACAU: 0.294
CAACACA: 0.189
CGUCAGG: -0.0301
CGGAUAG: -0.0373
UACGGAA: 0.187
UACAGGG: 0.14
GCACUUG: -0.137
GCCCAAG: -0.175
ACAGUCC: -0.166
GUCGAGC: -0.184
AUAUAUG: 0.0642
AAGCCGG: 0.0968

Other studies, line by line
PhoQ, residues 284 288 289 292 302 303 ASASEQ  fold induction (PhoP, residues 12 14 15 18 19 IQFRS (Escherichia coli, UniProt P23836); Sort-seq, refers to: YFP reporter; E. coli; PhoQ-PhoP variant library, together with: 10 µM Mg2+; baseline: high Mg2+ state, higher = stronger signaling): 1.3

For quick reference, copied from above (set 1):
CAGGUA: 0.931
CUUCUG: 0.872
AGGAGC: 0.966
GGAAUC: 0.856
